Published values from different studies.
A part holds a random share of what one study measured. Values joined by “and” are separate records of one study, mostly repeats; a detail may differ.
UniProt P27448, sequence (whole entry, looked up): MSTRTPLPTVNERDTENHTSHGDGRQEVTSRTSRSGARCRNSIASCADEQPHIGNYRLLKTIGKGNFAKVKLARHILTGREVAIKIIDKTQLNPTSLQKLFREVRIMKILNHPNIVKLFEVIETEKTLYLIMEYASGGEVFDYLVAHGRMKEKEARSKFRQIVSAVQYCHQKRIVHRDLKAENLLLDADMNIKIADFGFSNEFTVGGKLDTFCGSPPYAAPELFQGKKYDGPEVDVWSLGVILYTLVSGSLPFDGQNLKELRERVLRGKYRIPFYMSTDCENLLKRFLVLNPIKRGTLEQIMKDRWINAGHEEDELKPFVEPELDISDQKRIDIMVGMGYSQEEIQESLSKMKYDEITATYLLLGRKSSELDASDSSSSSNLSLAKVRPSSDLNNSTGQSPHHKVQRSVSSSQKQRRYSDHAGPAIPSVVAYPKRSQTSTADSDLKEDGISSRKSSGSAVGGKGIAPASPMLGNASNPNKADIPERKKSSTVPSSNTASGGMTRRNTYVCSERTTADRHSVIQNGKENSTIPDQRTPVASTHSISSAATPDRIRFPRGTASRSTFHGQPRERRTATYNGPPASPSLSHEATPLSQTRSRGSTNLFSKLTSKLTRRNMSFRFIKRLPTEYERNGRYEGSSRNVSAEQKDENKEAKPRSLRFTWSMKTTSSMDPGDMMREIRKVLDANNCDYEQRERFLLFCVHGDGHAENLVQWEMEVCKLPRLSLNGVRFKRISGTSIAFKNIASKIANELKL
UniProt P31751, sequence (whole entry, looked up): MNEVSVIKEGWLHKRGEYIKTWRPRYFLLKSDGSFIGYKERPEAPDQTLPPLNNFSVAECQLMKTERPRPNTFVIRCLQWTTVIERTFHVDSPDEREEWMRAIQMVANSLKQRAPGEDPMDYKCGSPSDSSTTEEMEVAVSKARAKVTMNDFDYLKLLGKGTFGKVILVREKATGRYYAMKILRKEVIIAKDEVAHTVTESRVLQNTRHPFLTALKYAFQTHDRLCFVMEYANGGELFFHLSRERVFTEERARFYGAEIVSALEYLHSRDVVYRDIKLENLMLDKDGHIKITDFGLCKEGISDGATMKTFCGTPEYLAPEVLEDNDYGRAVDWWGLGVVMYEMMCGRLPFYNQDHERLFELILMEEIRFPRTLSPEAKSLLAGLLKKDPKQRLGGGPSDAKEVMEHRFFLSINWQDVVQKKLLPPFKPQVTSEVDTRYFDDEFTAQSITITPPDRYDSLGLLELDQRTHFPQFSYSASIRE
UniProt Q16816, sequence (whole entry, looked up): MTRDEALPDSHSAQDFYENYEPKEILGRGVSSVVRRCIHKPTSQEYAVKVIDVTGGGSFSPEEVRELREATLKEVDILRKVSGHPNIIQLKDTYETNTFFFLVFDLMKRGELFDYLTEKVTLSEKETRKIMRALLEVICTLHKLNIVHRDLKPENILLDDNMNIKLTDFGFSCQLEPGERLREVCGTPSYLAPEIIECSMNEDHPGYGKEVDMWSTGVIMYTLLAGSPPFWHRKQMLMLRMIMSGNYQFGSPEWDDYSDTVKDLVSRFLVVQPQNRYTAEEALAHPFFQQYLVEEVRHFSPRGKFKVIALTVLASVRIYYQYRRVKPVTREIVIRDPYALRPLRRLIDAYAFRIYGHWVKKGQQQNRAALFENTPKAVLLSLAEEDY
UniProt P50750, sequence (whole entry, looked up): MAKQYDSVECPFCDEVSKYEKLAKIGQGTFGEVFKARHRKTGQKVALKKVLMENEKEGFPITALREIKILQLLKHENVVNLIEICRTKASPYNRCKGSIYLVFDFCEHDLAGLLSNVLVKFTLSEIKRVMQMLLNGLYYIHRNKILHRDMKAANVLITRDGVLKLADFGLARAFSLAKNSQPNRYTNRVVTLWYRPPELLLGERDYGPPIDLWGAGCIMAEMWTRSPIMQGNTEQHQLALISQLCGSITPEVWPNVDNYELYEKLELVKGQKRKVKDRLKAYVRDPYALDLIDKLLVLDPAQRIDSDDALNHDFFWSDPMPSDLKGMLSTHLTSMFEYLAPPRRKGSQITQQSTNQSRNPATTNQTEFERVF
UniProt Q9HBH9, sequence (whole entry, looked up): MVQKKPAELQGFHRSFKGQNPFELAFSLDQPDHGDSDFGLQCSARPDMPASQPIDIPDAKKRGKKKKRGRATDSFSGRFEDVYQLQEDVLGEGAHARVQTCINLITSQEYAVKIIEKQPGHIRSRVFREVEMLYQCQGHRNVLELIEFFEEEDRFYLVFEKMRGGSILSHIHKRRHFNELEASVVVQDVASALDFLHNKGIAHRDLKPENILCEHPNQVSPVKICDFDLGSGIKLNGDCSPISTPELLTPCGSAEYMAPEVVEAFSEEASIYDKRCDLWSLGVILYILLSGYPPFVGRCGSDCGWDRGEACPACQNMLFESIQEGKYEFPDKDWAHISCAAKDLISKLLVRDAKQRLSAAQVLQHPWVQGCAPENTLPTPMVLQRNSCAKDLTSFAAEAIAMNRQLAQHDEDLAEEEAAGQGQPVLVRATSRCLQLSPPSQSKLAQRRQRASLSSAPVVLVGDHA

Set 1 — concentration: 1 µM
Structure (SMILES): Cc1ccc(NC(=O)c2ccnc(C(F)(F)F)c2)cc1-c1cc(OCCO)nc(N2CCOCC2)c1
For BMX (Homo sapiens, UniProt P51813); competitive binding panel; relative to: vehicle: remaining binding read 93%.
For NEK9 (Homo sapiens, UniProt Q8TD19); competitive binding panel; relative to: vehicle: remaining binding read 100%.
PRKACA (Homo sapiens, UniProt P17612); competitive binding, scanMAX; PKAC-alpha, 1000 nM — remaining binding: 71%.
The remaining binding was 71% (ERN1 (Homo sapiens, UniProt O75460); competitive binding panel; relative to: vehicle).
The remaining binding was 96% (PIK3C2G (Homo sapiens, UniProt O75747); competitive binding panel; relative to: vehicle).
The remaining binding was 99% (COQ8A (Homo sapiens, UniProt Q8NI60); competitive binding, DiscoverX scanMAX binding).
TLK2 (Homo sapiens, UniProt Q86UE8); competitive binding panel; relative to: vehicle — remaining binding: 95%.
For LATS2 (Homo sapiens, UniProt Q9NRM7); competitive binding panel; relative to: vehicle: remaining binding read 98%.
MKNK2 (Homo sapiens, UniProt Q9HBH9); competitive binding panel; relative to: vehicle — remaining binding: 79%.
For WEE1 (Homo sapiens, UniProt P30291); competitive binding panel; relative to: vehicle: remaining binding read 88%.
The remaining binding was 81% (ANKK1 (Homo sapiens, UniProt Q8NFD2); competitive binding panel; relative to: vehicle).
It gave 91% for remaining binding (EPHB3 (Homo sapiens, UniProt P54753); competitive binding panel; relative to: vehicle).

Set 2 — technique: competition with immobilised ligand; concentration: 0.1 µM
Structure (SMILES): Cn1nc(C(=O)NCc2ccc(C(=O)O)cc2)cc1-c1ccc2[nH]ccc2c1
The remaining binding was 96% (DSTYK (Homo sapiens, UniProt Q6XUX3); cell-free assay).
For SGK1 (Homo sapiens, UniProt O00141); cell-free assay: remaining binding read 88%.
FRK (Homo sapiens, UniProt P42685); cell-free assay — remaining binding: 100%.
The remaining binding was 74% (NTRK1 (Homo sapiens, UniProt P04629); cell-free assay).
Myosin-IIIa (MYO3A, Homo sapiens, UniProt Q8NEV4); binding — remaining binding: 95%.
It gave 81% for remaining binding (MARK3 (Homo sapiens, UniProt P27448); cell-free assay).
PRKACB (Homo sapiens, UniProt P22694); cell-free assay — remaining binding: 98%.
It gave 100% for remaining binding (PLK2 (Homo sapiens, UniProt Q9NYY3); cell-free assay).
The remaining binding was 96% (AKT2 (Homo sapiens, UniProt P31751); cell-free assay).
For ERBB4 (Homo sapiens, UniProt Q15303); cell-free assay: remaining binding read 98%.
The remaining binding was 77% (SBK1 (Homo sapiens, UniProt Q52WX2); cell-free assay).
The remaining binding was 100% (EGFR (Homo sapiens, UniProt P00533, del746-750); cell-free assay).
For PHKG1 (Homo sapiens, UniProt Q16816); cell-free assay: remaining binding read 100%.
For PAK1 (Homo sapiens, UniProt Q13153); cell-free assay: remaining binding read 86%.
EPHB2 (Homo sapiens, UniProt P29323); cell-free assay — remaining binding: 100%.
For CDK9 (Homo sapiens, UniProt P50750); cell-free assay: remaining binding read 82%.
EPHB4 (Homo sapiens, UniProt P54760); cell-free assay — remaining binding: 100%.
It gave 100% for remaining binding (TNK1 (Homo sapiens, UniProt Q13470); cell-free assay).

Set 3 — observed: enzyme activity; action: inhibitor; concentration: 77 µM; relative to: untreated
Target: DNA polymerase theta, ATPase domain (POLQ, Homo sapiens, UniProt O75417)
UniProt O75417, sequence (whole entry, unmodified, looked up): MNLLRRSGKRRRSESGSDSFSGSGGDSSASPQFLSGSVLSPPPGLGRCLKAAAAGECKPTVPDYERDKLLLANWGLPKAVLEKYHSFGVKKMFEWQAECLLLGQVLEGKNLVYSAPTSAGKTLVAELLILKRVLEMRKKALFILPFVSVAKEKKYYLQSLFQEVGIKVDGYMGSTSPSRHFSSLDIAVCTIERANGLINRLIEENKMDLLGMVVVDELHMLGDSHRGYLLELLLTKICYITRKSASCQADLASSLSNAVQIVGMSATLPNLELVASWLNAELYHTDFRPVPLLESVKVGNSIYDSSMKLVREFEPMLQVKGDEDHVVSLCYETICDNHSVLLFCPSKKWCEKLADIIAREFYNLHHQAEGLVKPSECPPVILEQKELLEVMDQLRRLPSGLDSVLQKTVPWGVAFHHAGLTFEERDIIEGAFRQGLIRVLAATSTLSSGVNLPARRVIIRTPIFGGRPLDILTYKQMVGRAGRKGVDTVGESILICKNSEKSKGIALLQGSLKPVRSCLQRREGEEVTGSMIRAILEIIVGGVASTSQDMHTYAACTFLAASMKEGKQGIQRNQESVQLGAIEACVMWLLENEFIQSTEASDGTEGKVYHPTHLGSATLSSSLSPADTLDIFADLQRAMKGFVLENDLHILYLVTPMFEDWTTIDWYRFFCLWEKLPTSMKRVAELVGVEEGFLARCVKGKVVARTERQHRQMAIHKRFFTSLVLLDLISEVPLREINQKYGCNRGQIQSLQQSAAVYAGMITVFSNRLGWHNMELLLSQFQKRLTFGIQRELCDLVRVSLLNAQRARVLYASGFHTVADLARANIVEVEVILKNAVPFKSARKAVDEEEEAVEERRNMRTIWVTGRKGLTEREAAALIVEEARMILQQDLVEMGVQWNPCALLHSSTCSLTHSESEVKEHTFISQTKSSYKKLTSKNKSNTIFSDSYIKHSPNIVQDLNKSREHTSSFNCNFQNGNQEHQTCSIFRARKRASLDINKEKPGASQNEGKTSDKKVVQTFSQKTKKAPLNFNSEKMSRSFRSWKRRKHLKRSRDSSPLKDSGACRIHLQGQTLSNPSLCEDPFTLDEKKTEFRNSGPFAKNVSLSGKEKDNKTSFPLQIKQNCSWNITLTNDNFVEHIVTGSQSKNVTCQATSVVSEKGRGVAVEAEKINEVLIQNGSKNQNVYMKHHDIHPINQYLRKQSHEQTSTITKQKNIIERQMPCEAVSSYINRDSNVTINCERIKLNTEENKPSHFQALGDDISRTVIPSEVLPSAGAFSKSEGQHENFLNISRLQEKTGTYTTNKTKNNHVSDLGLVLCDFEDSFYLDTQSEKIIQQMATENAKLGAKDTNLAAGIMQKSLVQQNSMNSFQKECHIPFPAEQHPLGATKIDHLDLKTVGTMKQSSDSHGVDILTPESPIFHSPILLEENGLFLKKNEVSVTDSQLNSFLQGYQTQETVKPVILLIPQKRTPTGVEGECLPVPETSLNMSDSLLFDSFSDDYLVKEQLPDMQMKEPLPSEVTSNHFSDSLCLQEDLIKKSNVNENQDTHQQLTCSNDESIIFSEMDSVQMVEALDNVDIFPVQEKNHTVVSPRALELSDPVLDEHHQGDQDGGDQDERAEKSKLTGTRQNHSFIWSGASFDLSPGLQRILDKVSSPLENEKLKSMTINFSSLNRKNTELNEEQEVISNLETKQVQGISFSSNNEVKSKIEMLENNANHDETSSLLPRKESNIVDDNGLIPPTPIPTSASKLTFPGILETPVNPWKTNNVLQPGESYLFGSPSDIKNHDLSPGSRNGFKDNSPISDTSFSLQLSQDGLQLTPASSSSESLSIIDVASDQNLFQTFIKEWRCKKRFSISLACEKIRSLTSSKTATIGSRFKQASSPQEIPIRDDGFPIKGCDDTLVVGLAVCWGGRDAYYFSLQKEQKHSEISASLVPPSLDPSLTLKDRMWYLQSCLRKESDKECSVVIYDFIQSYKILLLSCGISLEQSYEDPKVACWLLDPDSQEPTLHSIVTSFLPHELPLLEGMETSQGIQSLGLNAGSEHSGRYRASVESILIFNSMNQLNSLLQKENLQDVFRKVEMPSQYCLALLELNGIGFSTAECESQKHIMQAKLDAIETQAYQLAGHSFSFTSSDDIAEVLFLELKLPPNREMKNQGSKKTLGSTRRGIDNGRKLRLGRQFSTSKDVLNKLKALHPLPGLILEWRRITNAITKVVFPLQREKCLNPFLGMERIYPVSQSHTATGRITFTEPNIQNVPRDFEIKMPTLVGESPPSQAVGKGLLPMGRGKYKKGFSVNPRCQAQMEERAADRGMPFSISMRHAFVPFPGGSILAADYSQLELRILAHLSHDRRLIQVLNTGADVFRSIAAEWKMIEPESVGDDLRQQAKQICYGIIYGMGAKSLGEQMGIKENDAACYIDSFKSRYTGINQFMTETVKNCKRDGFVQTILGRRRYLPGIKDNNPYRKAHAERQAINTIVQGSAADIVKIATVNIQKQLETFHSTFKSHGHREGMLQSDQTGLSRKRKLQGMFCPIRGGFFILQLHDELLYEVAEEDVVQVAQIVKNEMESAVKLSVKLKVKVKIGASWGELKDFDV
`CCCCC(=O)N(Cc1ccc(-c2ccccc2-c2nnn[nH]2)cc1)[C@H](C(=O)O)C(C)C` has a remaining activity of 91.4%.
`CC(Cc1cccc(C(F)(F)F)c1)NCCOC(=O)c1ccccc1` (stereo not drawn) has a remaining activity of 104%.
`Cc1cccc(C)c1NC(=O)C1CCCCN1C` (stereo not drawn) gave a remaining activity of 97.7%.
`COc1c(N2C[C@@H]3CCCN[C@@H]3C2)c(F)cc2c(=O)c(C(=O)O)cn(C3CC3)c12` gave a remaining activity of 99%.
`C1CCc2nnnn2CC1` has a remaining activity of 98.3% and 101%.
`N[C@@H](Cc1c[nH]c2ccc(O)cc12)C(=O)O` has a remaining activity of 93.8%.
`OCc1cc(C(O)CNCCCCCCOCCCCc2ccccc2)ccc1O` (stereo not drawn) gave a remaining activity of 99.9%.
The remaining activity of `OCCN1CCN(CC/C=C2/c3ccccc3Sc3ccc(C(F)(F)F)cc32)CC1` is reported as 105%.
`COC(=O)[C@H](Cc1ccccc1)NC(=O)[C@@H](N)CC(=O)O` has a remaining activity of 75.5%.
The remaining activity of `Cc1cccc(C)c1OCC(=O)N[C@@H](Cc1ccccc1)[C@@H](O)C[C@H](Cc1ccccc1)NC(=O)[C@H](C(C)C)N1CCCNC1=O` is reported as 100%.

Set 4 — observed: enzyme activity; action: inhibitor; concentration: 0.5 µM; relative to: control
Target: Serine/threonine-protein kinase Nek7 (NEK7, Homo sapiens, UniProt Q8TDX7)
Construct (Q8TDX7 1-302): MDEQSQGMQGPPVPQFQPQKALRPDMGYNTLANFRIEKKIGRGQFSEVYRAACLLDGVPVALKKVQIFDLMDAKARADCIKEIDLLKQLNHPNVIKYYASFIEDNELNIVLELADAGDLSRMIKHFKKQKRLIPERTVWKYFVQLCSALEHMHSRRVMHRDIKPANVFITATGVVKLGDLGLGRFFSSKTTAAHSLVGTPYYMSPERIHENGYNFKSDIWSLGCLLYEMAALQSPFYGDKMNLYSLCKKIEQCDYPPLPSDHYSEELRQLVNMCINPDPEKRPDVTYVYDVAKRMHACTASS
`COc1cc2ncnc(Nc3ccc(OCc4ccccc4)cc3)c2cc1OC` gave a remaining activity of 101%.
The remaining activity of `Cc1ccc(NC(=O)c2ccc(CN3CCN(C)CC3)cc2)cc1Nc1nccc(-c2cccnc2)n1` is reported as 102%.
`O=c1cc(N2CCOCC2)oc2c1ccc1ccccc12` gave a remaining activity of 96.6%.
The remaining activity of `C[S+]([O-])c1ccc(-c2nc(-c3ccncc3)c(-c3ccc(F)cc3)[nH]2)cc1` (stereo not drawn) is reported as 98.9%.
The remaining activity of `O=C(Nc1ccc(Cl)cc1)c1ccccc1NCc1ccncc1` is reported as 103%.
For `COc1cc2ncnc(N3CCN(C(=O)Nc4ccc(Oc5ccccc5)cc4)CC3)c2cc1OC`, the remaining activity was 105%.
With `CCC(=O)Nc1ccc2ncnc(Nc3cccc(Br)c3)c2c1` the remaining activity was 92.7%.
`CC(C)c1nn(-c2c(Cl)cccc2Cl)c2nc(Cc3ccc(OCCO)cc3)[nH]c(=O)c12` gave a remaining activity of 94%.
With `COc1ccc(-c2cnc3c(-c4ccsc4)cnn3c2)cc1` the remaining activity was 109%.
`CC(=O)O/N=C1/C(c2c(O)[nH]c3cc(Br)ccc23)=Nc2ccccc21` has a remaining activity of 91.9%.
With `Nc1[nH]nc2nnc(-c3c(-c4ccccc4)nn4ccccc34)cc12` the remaining activity was 95.3%.
With `CN(C)CCCn1cc(C2=C(c3c[nH]c4ccccc34)C(=O)NC2=O)c2ccccc21` the remaining activity was 87.1%.
With `Cn1cnc2cc3c(Nc4cccc(Br)c4)ncnc3cc21` the remaining activity was 99.4%.
`COc1ccc(Cl)cc1NC(=O)Nc1cc(C)nc2ccccc12` has a remaining activity of 103%.
The remaining activity of `Cc1nc(Nc2ncc(C(=O)Nc3c(C)cccc3Cl)s2)cc(N2CCN(CCO)CC2)n1` is reported as 91%.
With `COc1cc2ncc(-c3ccccc3)nc2cc1OC` the remaining activity was 102%.
With `Cn1cc(/C=C2\C(=O)Nc3ccc(S(N)(=O)=O)cc32)c2ccccc21` the remaining activity was 101%.
For `CC(C)[C@H](CO)Nc1nc(Nc2cccc(Cl)c2)c2ncn(C(C)C)c2n1`, the remaining activity was 101%.
`CCOc1cc2ncnc(Nc3cccc(Br)c3)c2cc1OCC` gave a remaining activity of 98.6%.
With `O=C1NC(=O)/C(=C/c2ccc3nccnc3c2)S1` the remaining activity was 105%.
